# Published values of several laboratories.
# Parts stem from different laboratories: compare values within a part only.
# UniProt O60674, sequence (whole entry, looked up): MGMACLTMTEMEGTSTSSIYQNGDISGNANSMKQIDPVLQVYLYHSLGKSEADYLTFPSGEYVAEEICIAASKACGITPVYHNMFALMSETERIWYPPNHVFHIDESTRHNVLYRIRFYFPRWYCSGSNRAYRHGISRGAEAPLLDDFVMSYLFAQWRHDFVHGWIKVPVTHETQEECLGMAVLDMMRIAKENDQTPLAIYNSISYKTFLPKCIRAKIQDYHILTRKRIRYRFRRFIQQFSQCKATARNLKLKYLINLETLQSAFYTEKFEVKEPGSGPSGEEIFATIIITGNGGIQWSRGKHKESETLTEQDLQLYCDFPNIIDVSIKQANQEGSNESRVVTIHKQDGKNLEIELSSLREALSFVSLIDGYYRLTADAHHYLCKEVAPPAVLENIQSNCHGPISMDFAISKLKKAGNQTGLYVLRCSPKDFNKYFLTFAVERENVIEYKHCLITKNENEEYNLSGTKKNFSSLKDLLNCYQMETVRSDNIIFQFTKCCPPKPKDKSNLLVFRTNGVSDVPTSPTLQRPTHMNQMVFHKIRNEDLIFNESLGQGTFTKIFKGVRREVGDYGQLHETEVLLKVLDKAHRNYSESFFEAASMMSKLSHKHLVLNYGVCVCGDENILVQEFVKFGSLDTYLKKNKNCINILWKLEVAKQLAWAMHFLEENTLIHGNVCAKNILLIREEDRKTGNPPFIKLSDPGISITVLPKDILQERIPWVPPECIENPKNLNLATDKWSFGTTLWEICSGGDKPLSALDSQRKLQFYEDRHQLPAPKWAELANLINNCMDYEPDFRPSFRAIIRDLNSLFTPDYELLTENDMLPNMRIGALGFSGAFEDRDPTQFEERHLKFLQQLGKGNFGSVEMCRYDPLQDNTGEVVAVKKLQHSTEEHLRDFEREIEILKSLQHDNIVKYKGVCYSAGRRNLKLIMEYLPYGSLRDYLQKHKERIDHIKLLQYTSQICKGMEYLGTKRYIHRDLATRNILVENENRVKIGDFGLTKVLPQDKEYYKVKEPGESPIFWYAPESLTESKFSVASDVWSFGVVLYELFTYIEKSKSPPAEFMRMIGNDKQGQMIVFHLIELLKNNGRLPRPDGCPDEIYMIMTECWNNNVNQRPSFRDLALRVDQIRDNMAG
# UniProt Q9P1W9, sequence (whole entry, looked up): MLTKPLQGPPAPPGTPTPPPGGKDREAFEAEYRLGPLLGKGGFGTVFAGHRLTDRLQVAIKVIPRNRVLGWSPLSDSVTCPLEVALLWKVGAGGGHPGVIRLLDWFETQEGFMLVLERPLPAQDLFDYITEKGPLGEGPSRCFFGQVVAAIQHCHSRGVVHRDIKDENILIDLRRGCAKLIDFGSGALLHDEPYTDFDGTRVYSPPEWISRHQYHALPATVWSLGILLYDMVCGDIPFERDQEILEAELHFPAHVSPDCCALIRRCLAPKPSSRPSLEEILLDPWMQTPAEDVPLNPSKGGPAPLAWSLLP
# UniProt P11802, sequence (whole entry, looked up): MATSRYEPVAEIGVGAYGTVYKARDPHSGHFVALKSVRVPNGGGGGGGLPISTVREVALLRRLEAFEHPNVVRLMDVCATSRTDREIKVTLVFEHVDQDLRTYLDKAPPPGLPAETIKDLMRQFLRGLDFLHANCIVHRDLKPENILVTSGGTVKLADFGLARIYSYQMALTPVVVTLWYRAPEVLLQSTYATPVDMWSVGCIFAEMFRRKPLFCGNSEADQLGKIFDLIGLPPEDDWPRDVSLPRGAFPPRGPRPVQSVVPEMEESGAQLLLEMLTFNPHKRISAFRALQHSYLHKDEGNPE
# UniProt Q8IY84, sequence (whole entry, looked up): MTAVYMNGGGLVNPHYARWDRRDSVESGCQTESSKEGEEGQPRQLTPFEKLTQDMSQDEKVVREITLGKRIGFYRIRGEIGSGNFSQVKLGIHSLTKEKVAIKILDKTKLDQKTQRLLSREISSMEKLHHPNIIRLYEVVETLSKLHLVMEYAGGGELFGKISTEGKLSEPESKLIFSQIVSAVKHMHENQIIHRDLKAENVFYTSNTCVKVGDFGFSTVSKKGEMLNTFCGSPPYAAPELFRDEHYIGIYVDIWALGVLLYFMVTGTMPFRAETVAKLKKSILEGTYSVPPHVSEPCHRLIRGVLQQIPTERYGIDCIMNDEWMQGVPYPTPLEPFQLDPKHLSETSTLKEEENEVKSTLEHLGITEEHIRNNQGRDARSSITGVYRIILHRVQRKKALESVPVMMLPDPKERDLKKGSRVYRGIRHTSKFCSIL

# Set 1
# Target: DNA polymerase theta, ATPase domain (POLQ, Homo sapiens, UniProt O75417)
# UniProt O75417, sequence (whole entry, unmodified, looked up): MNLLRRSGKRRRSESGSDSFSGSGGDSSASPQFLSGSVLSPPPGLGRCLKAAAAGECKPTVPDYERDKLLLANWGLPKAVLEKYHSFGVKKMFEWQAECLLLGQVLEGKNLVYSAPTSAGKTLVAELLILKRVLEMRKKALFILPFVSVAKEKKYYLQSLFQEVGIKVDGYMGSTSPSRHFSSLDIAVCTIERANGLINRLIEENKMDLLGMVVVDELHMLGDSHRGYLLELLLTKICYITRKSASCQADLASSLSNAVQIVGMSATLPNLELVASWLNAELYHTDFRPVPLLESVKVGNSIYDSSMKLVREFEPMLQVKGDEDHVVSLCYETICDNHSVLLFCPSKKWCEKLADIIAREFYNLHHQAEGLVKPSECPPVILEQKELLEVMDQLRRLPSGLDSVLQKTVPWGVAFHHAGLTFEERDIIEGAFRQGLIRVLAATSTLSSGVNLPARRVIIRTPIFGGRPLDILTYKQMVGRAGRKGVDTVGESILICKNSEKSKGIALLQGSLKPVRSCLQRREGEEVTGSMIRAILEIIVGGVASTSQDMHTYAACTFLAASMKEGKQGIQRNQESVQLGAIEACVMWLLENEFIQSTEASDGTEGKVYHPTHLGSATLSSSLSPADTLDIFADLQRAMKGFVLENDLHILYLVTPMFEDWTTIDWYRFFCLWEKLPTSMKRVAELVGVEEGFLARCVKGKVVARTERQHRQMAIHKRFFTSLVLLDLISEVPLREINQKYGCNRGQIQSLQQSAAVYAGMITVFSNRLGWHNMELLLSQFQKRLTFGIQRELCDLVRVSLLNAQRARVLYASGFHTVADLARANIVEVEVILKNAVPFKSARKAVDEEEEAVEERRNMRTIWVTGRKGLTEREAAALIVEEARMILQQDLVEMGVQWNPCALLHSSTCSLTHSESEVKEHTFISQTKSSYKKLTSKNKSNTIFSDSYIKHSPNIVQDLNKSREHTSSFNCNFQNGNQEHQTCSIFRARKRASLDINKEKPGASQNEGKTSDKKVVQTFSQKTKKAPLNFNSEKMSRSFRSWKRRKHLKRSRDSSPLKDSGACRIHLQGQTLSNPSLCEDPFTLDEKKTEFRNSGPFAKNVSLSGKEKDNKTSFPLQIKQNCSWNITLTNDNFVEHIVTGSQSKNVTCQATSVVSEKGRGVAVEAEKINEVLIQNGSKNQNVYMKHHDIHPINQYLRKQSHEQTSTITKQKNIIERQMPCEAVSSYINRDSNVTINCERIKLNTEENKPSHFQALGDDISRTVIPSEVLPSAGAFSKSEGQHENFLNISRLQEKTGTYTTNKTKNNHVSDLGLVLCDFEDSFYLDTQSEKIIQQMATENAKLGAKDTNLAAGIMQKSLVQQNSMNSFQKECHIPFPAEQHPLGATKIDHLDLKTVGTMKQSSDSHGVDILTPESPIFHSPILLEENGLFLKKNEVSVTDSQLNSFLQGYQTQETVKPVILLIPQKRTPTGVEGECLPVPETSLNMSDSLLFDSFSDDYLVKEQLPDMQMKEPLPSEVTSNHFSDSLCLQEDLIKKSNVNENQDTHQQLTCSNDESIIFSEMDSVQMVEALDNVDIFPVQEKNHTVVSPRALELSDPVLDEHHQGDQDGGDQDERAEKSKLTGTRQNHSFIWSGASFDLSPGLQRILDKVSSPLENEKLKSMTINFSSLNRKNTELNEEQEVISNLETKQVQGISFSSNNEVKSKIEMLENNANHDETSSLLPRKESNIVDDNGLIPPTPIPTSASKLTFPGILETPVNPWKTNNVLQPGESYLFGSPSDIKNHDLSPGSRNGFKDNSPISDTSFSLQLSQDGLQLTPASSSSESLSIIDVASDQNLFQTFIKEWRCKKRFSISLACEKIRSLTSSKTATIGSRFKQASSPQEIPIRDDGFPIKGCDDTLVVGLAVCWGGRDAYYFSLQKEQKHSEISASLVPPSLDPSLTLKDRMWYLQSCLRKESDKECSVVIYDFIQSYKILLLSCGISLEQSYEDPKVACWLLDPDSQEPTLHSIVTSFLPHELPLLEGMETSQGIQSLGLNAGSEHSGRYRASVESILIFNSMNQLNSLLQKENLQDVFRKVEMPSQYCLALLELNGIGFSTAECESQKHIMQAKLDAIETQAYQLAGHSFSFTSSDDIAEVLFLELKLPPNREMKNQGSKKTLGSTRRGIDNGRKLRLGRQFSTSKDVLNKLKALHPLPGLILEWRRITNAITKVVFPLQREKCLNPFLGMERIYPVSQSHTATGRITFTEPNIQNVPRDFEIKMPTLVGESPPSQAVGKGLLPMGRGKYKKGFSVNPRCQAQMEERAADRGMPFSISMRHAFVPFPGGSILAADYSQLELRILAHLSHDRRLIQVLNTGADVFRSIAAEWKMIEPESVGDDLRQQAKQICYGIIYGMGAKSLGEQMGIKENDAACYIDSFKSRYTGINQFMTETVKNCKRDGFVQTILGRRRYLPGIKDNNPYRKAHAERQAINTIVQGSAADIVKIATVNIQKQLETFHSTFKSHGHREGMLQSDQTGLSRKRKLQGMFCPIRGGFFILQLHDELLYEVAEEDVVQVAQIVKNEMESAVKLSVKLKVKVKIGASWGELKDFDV
# Effect on: enzyme activity
# Mode: inhibitor
# Concentration: 77 µM
# Reference: untreated
SMILES,remaining activity [%]
COc1cc(CNC(=O)CCCCCCC(C)C)ccc1O,96.7
N[C@@H](Cc1ccc(O)c(I)c1)C(=O)O,100
CN1CCCCC1CCN1c2ccccc2Sc2ccc([S+](C)[O-])cc21 (centres unmarked),101
Nc1nnc(-c2cccc(Cl)c2Cl)c(N)n1,104
NCCC[C@](N)(C(=O)O)C(F)F (racemic),104
Clc1ccc2nsnc2c1NC1=NCCN1,98.7
CN(C)CCc1c[nH]c2ccc(Cn3cncn3)cc12,99.9
CCC1=C[C@@H]2CN(C1)Cc1c([nH]c3ccccc13)[C@@](C(=O)OC)(c1cc3c(cc1OC)N(C)[C@H]1[C@@](O)(C(=O)OC)[C@H](OC(C)=O)[C@]4(CC)C=CCN5CC[C@]31[C@@H]54)C2,101

# Set 2
# SMILES: CCOCCn1cc(C(=O)Nc2ccc(-n3nc(-c4cccnc4)cc3C(F)(F)F)cn2)ccc1=O
# Technique: competition with immobilised ligand
# Concentration: 1 µM
target,effect on,remaining binding [%]
"Serine/threonine-protein kinase pim-2 (PIM2, Homo sapiens, UniProt Q9P1W9)",cell-free assay,100
"Non-receptor tyrosine-protein kinase TYK2, JH2 (TYK2, Homo sapiens, UniProt P29597)",cell-free assay,77
"Tyrosine-protein kinase Lck (LCK, Homo sapiens, UniProt P06239)",cell-free assay,100
"Serine/threonine-protein kinase NIM1 (NIM1K, Homo sapiens, UniProt Q8IY84)",cell-free assay,100
"Fibroblast growth factor receptor 3 (FGFR3, Homo sapiens, UniProt P22607, G697C)",cell-free assay,100
"Serine/threonine-protein kinase D2 (PRKD2, Homo sapiens, UniProt Q9BZL6)",cell-free assay,100
"Cyclin-dependent kinase 4, with cyclin D1 (CDK4, Homo sapiens, UniProt P11802)",cell-free assay,93
"Serine/threonine-protein kinase TAO2 (TAOK2, Homo sapiens, UniProt Q9UL54)",cell-free assay,75
"Mitogen-activated protein kinase kinase kinase 2 (MAP3K2, Homo sapiens, UniProt Q9Y2U5)",cell-free assay,94
"Serine/threonine-protein kinase Nek9 (NEK9, Homo sapiens, UniProt Q8TD19)",cell-free assay,100
"3-phosphoinositide-dependent protein kinase 1 (PDPK1, Homo sapiens, UniProt O15530)",cell-free assay,87
"Phosphatidylinositol 4,5-bisphosphate 3-kinase catalytic subunit alpha isoform (PIK3CA, Homo sapiens, UniProt P42336, C420R)",cell-free assay,93
"Interleukin-1 receptor-associated kinase 1 (IRAK1, Homo sapiens, UniProt P51617)",cell-free assay,84
"Serine/threonine-protein kinase tousled-like 1 (TLK1, Homo sapiens, UniProt Q9UKI8)",cell-free assay,100
"Serine/threonine-protein kinase mTOR (MTOR, Homo sapiens, UniProt P42345)",cell-free assay,100
"Peripheral plasma membrane protein CASK (CASK, Homo sapiens, UniProt O14936)",cell-free assay,85
"Cyclin-dependent kinase 3 (CDK3, Homo sapiens, UniProt Q00526)",cell-free assay,100
"Tyrosine-protein kinase JAK2, JH1 (JAK2, Homo sapiens, UniProt O60674)",cell-free assay,91
"Tyrosine-protein kinase ABL1, phosphorylated (ABL1, Homo sapiens, UniProt P00519, E255K)",binding,69

# Set 3
# Compound: CC(=O)N[C@@H](Cc1c[nH]c2ccccc12)C(=O)N[C@@H](CCC(=O)C=[N+]=[N-])C(=O)OC(C)C
# Medium: EL4 tumour
# Dose: dose not given
# Reference: vehicle
item,host,log2 fold change
anserine,"mouse, EL4 tumour-bearing",1.86
"N6,N6-dimethyllysine",Mus musculus,-0.306
arabitol/xylitol,"mouse, EL4 tumour-bearing",0.445
guanine,"mouse, EL4 tumour-bearing",-1.2
glucose 6-phosphate,"mouse, EL4 tumour-bearing",0.661
N-acetylphenylalanine,"mouse, EL4 tumour-bearing",-0.188
5-hydroxylysine,"mouse, EL4 tumour-bearing",0.359

# Set 4
# Compound: COc1ccc2[nH]c3c4[nH]c5ccc(OC)cc5c4c4c(c3c2c1)C(=O)NC4=O
# Technique: competitive binding panel
# Concentration: 1 µM
# Reference: vehicle
target,remaining binding [%]
"Mitogen-activated protein kinase kinase kinase 3 (MAP3K3, Homo sapiens, UniProt Q99759)",59
"Serine/threonine-protein kinase pim-3 (PIM3, Homo sapiens, UniProt Q86V86)",2.6
"Serine/threonine-protein kinase 16 (STK16, Homo sapiens, UniProt O75716)",74
"Rho-associated protein kinase 2 (ROCK2, Homo sapiens, UniProt O75116)",73

# A few entries again (set 1):
SMILES,remaining activity [%]
COc1cc(CNC(=O)CCCCCCC(C)C)ccc1O,96.7
CN(C)CCc1c[nH]c2ccc(Cn3cncn3)cc12,99.9
Nc1nnc(-c2cccc(Cl)c2Cl)c(N)n1,104
CN1CCCCC1CCN1c2ccccc2Sc2ccc([S+](C)[O-])cc21 (centres unmarked),101
Clc1ccc2nsnc2c1NC1=NCCN1,98.7
